Assay results gathered from unrelated publications.
Numbered parts are unrelated; each lists some results of a single study. Changes are numbered by the printed parent chain.

Sample 1
Target: CCNA2, cyclin fold, Cln2 fusion (human)
Method: yeast growth competition, sequencing
Sample: yeast
Setting: strong parent motif
Relative to: not given
Direction: higher = stronger binding
Starting sequence: RBL2 docking peptide (human); STTRRRLFVENDS; partner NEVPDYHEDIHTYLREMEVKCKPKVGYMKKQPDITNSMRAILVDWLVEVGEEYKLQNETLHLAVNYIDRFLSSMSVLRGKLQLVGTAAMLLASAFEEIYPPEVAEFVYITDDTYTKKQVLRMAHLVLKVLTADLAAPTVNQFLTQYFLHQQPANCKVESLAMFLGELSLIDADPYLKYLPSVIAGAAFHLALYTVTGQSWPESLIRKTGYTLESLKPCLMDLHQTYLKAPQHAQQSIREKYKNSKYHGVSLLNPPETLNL
| Substitution | normalised enrichment score |
| --- | --- |
| V9A | 6.46 |
| S1W | 4.12 |
| T2H | 6.26 |
| V9T | 6.63 |
| S1L | 5.13 |
| S1H | 5.2 |
| R5A L7A | -0.0829 |
| S1P | 5.08 |
| N11A | 5.17 |
| T3K | 1.97 |
| R5Y | 1.14 |
| T2Y | 5.24 |
| E10V | 5.25 |
| R4W | 1.1 |
| F8N | 1.78 |

Sample 2
Target: Ras GTPase-activating protein-binding protein 1, full length (G3BP1, Homo sapiens, UniProt Q13283)
Chain of UniProt Q13283 (whole entry, looked up): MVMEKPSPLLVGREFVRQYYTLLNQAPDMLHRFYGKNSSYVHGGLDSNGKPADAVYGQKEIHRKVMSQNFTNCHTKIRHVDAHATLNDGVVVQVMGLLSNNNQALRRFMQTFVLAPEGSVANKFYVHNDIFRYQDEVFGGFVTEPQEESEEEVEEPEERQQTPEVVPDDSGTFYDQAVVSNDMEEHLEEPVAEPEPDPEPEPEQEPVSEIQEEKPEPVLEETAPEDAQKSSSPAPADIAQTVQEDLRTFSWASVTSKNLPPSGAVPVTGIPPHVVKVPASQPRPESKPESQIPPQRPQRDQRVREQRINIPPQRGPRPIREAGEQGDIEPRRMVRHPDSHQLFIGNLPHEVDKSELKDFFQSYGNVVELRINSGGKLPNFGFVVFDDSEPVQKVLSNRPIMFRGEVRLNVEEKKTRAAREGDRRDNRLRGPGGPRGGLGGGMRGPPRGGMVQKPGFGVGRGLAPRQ
Method: RNA Bind-n-Seq
Form: RNA
Sample: in vitro
Concentration: 200 nM
Setting: whole 134-nt RNA, ends assumed
Added: 150 mM LiCl
Relative to: input library
Direction: higher = stronger binding
All molecules: 7-deaza-guanosine replaces G
Constant ends, left off below: GGGAGUUCUACAGUCCGACGAUC … UGGAAUUCUCGGGUGUCAAGG
| Oligonucleotide | log2 enrichment |
| --- | --- |
| AAGUCCUGUGCUACACAUCGUAUGUACCGAAUCGGGAAAAAAAGGGAAAGGGAGGGAAAGUAUUAUGUUACGCCGUUCGGAUCUGCACUU | 0.0444 |
| UCCUGUGCUACACAUCGUAUGUACCGAAUCGGUUUUUUGGGGUUUUUUGGGGUUUUUUGGAAAGUAUUAUGUUACGCCGUUCGGAUCUGC | 0.991 |
| AAGUCCUGUGCUACACAUCGUAUGUACCGAAUCGGGGAAAAGGAAAAGGGGAAAAGGAAAGUAUUAUGUUACGCCGUUCGGAUCUGCACU | 0.291 |
| UGGGAGGUGGAUUUUGUUUAUUUUUUUAGCUCAUUUCCAGGGGUGGGAAUUUUUUUUUAAUAUGUGUCAUGAAUACAGUUGUUUUUGAAA | -0.272 |
| UGCAGAAGCAUCUUCAGUUGGAGAGCCAUUGCCUCUUGCUGUGAAAUAUUUGGGAAUCUUCAGAAACCAUGAAGAAUAACCUGCUAAAGG | 0.24 |
| UCCUGUGCUACACAUCGUAUGUACCGAAUCGGUUUUUGGGGUUUUUGGGGUUUUUGGGGAAAGUAUUAUGUUACGCCGUUCGGAUCUGCA | -0.047 |
| UCAAGUCCUGUGCUACACAUCGUAUGUACCGAAUCGGAAAGGAAAGGUUUUUGGAAAGUAUUAUGUUACGCCGUUCGGAUCUGCACUUCC | -0.388 |
| CACAGACAACACCCACCCACACAGACACAGAGGGAAGGGGUUGGGAUGGGGACAGGGUGCACAGCAGGGCGGGGUAGGACCCCAGCCCCU | -1.25 |

Sample 3
Target: UBE2G2 UBC core domain (UniProt P60604)
Method: yeast two-hybrid
Sample: yeast
Setting: mostly zero background
Relative to: not given
Direction: higher = stronger interaction
B1: RNF186 RING domain (UniProt Q9NXI6); chain HSGSTECDLECLVCREPYSCPRLPKLLACQHAFCAICLKLLLCVQDNTWSITCPLCRKVTAVPGGLI
B2: ZNRF4 RING domain (UniProt Q8WWF5); chain VRTFTWHNDLCAICLDEYEEGDQLKILPCSHTYHCKCIDPWFSQAPRRSCPVCKQSVAATEDSF
B3: RNF103 RING domain (UniProt O00237); chain WPADMLHCTECVVCLENFENGCLLMGLPCGHVFHQNCIVMWLAGGRHCCPVCRWPSYKKKQPY
B4: TRIM11 RING domain (UniProt Q96F44); chain LSTNLQEEATCAICLDYFTDPVMTDCGHNFCRECIRRCWGQPEGPYACPECRELSPQRNLRP
B5: MARCHF1 RING domain (UniProt Q8TCQ1); chain TAPRSQSRLSVCPSTQDICRICHCEGDEESPLITPCRCTGTLRFVHQSCLHQWIKSSDTRCCELCKYDFIMETKLKPLRKWE
B6: MKRN3 RING domain (UniProt Q13064); chain FAVQRGMDKVCGICMEVVYEKANPNDRRFGILSNCNHSFCIRCIRRWRSARQFENRIVKSCPQCRVTSELVIPSE
Residues (chain): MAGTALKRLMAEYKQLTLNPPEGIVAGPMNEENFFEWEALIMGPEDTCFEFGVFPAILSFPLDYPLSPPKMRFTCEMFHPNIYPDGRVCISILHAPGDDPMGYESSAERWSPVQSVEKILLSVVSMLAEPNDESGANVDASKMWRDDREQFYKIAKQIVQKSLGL
| Sequence | lacZ reporter activity |
| --- | --- |
| B1 (RNF186 RING domain) | 17100 |
| B2 (ZNRF4 RING domain) | 4780 |
| B3 (RNF103 RING domain) | 4410 |
| B4 (TRIM11 RING domain) | 0 |
| LEALSSDFLACKICLEQLRAPKTLPCLHTYCQDCLAQLADGGRVRCPECRETVPVPPEGV (TRIM56 RING domain (UniProt Q9BRZ2)) | 0 |
| ASEEEFQFLRCQQCQAEAKCPKLLPCLHTLCSGCLEASGMQCPICQAPWPLGADTP (PML RING domain (UniProt P29590)) | 0 |
| B5 (MARCHF1 RING domain) | 0 |
| B6 (MKRN3 RING domain) | 0 |
| FAEQPSVKLCCQLCCSVFKDPVITTCGHTFCRRCALKSEKCPVDNVKLTVVVNNI (TRAF7 RING domain (UniProt Q6Q0C0)) | 0 |
| DDVLTKDAGECVICLEELLQGDTIARLPCLCIYHKSCIDSWFEVNRSCPEHPAD (ZNRF1 RING domain (UniProt Q8ND25)) | 0 |
| FDPPLESKYECPICLMALREAVQTPCGHRFCKACIIKSIRDAGHKCPVDNEILLENQLFP (TRAF6 RING domain (UniProt Q9Y4K3)) | 0 |

Sample 4
Target: ABI1, truncated, D143A, DHFR fusion (Arabidopsis thaliana)
Method: DHFR PCA, deep sequencing
Sample: yeast
Setting: methotrexate growth selection, single substitutions
Added: (+)-ABA 58 µM
Relative to: wild-type fitted maximum
Direction: higher = stronger binding
Starting sequence: PYL1, truncated, DHFR fusion (Arabidopsis thaliana); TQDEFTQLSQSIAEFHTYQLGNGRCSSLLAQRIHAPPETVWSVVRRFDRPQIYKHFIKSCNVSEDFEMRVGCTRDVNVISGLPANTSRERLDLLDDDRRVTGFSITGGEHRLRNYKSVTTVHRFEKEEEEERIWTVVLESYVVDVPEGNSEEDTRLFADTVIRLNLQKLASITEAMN; partner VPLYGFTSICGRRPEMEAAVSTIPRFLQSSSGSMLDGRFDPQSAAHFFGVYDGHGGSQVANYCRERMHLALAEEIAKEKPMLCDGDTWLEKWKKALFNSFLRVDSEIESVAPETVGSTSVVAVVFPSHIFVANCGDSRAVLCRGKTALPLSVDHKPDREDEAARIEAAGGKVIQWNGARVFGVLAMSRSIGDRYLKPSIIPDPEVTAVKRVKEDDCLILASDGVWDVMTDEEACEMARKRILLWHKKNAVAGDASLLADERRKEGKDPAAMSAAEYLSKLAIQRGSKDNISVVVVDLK
| Substitution | relative binding score |
| --- | --- |
| L28A | 36.5% |
| R49W | 23% |
| N77D | 82.7% |
| H34W | 74.9% |
| T119I | 66% |
| K126R | 93.9% |
| A35E | 9.75% |
| R46E | 69.9% |
| I33D | -9.05% |
| H122L | 33.1% |
| I133T | 95.5% |

Sample 5
Target: JDP2, bZIP domain (human)
Method: DHFR protein complementation
Sample: yeast
Setting: single substitutions, most at no-binding floor
Relative to: wild-type JUN-FOS pair
Direction: higher = stronger binding
Starting sequence: JUN, bZIP domain (human); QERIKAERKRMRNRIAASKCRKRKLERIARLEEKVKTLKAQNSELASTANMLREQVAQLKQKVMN; partner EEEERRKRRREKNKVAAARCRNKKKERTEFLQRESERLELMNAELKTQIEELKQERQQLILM
| Substitution | binding fitness |
| --- | --- |
| K36I | 0.26 natural log |
| E33C | 0.19 natural log |
| S47L | 0.242 natural log |
| K39R | 0.323 natural log |
| R30M | 0.31 natural log |
| T37L | 0.326 natural log |
| V35S | -0.0387 natural log |
| A29Y | 0.22 natural log |
| E32N | 0.182 natural log |
| E54K | 0.183 natural log |

A few entries again (sample 2):
| Oligonucleotide | log2 enrichment |
| --- | --- |
| UGGGAGGUGGAUUUUGUUUAUUUUUUUAGCUCAUUUCCAGGGGUGGGAAUUUUUUUUUAAUAUGUGUCAUGAAUACAGUUGUUUUUGAAA | -0.272 |
| CACAGACAACACCCACCCACACAGACACAGAGGGAAGGGGUUGGGAUGGGGACAGGGUGCACAGCAGGGCGGGGUAGGACCCCAGCCCCU | -1.25 |
| AAGUCCUGUGCUACACAUCGUAUGUACCGAAUCGGGAAAAAAAGGGAAAGGGAGGGAAAGUAUUAUGUUACGCCGUUCGGAUCUGCACUU | 0.0444 |
| UGCAGAAGCAUCUUCAGUUGGAGAGCCAUUGCCUCUUGCUGUGAAAUAUUUGGGAAUCUUCAGAAACCAUGAAGAAUAACCUGCUAAAGG | 0.24 |
| UCAAGUCCUGUGCUACACAUCGUAUGUACCGAAUCGGAAAGGAAAGGUUUUUGGAAAGUAUUAUGUUACGCCGUUCGGAUCUGCACUUCC | -0.388 |
| AAGUCCUGUGCUACACAUCGUAUGUACCGAAUCGGGGAAAAGGAAAAGGGGAAAAGGAAAGUAUUAUGUUACGCCGUUCGGAUCUGCACU | 0.291 |
